Measurements collected from several papers.
Parts stem from different laboratories: compare values within a part only. ± gives the spread as reported.

Series 1
Target: HIV-1 TAR RNA
Tested at: concentration not given
Temperature: 25 °C
SMILES	binding entropy term TΔS°
CC(=O)NCCN(CC(=O)NCCN(CC(=O)NCCN(CC(=O)NCCC(N)=O)C(=O)[C@@H](N)CCCNC(=N)N)C(=O)[C@@H](N)CCCCN)C(=O)[C@@H](N)Cc1ccccc1	-7.6 ± 0.502 kcal/mol
CC(=O)NCCN(CCC(=O)NCCN(CCC(=O)NCCN(CCC(=O)NCCC(N)=O)C(=O)[C@@H](N)Cc1ccccc1)C(=O)[C@@H](N)Cc1ccccc1)C(=O)[C@@H](N)CCCNC(=N)N	0.239 ± 0.143 kcal/mol
CC(=O)NCCN(CC(=O)NCCN(CC(=O)NCCN(CC(=O)NCCC(N)=O)C(=O)C[C@@H](N)CCCCN)C(=O)C[C@@H](N)Cc1ccccc1)C(=O)C[C@@H](N)Cc1ccccc1	1.46 ± 0.167 kcal/mol
CC(=O)NCCN(CC(=O)NCCN(CC(=O)NCCN(CC(=O)NCCC(N)=O)C(=O)C[C@@H](N)Cc1ccccc1)C(=O)C[C@@H](N)CCCNC(=N)N)C(=O)C[C@@H](N)Cc1ccccc1	1.63 ± 0.12 kcal/mol

Series 2
Structure (SMILES): CNCc1ccc2c(c1)N(C(=O)OCc1c(F)c(F)c(F)c(F)c1F)[C@H](CNC(=N)N)[C@H]2NC(=O)C(=O)Nc1ccc(Cl)c(F)c1
Cell line: TZM-bl
tested on	effect on	technique	strain	time	IC50 [nM]
env (Human immunodeficiency virus 1, UniProt Q5G5U9)	pseudovirus infection	luciferase reporter		48 h	547
env (Human immunodeficiency virus 1, UniProt Q27Q59)	pseudovirus infection	luciferase reporter		48 h	135
Human immunodeficiency virus 1	viral infection	Env pseudovirus	6405.v4.c34 clade D		1190
Human immunodeficiency virus 1	viral infection	Env pseudovirus	1012_11_TC21_3257 clade B T/F		2510
env (Human immunodeficiency virus 1, UniProt Q5G5V1)	pseudovirus infection	luciferase reporter		48 h	448

Further values, each from its own experiment
Structure (SMILES)	tested on	assay	test system	conditions	endpoint	result
F[P-](F)(F)(F)(F)F.OC(Cn1cncn1)(Cn1cc(-[c-]2cccc2)nn1)c1ccc(F)cc1F.[Co+3].c1cc[cH-]c1 (racemic)	Trichuris muris	Worminator	adult males and females	100 µM, day 1	motility inhibition	25%
C[C@H](Nc1ncnc(N)c1C#N)c1c(-c2ccccc2)[nH]c2c(Cl)cccc2c1=O	Pfeiffer	cell proliferation, CellTiter-Glo			IC50	4640 nM

Some of these lines once more (series 1):
SMILES	binding entropy term TΔS°
CC(=O)NCCN(CC(=O)NCCN(CC(=O)NCCN(CC(=O)NCCC(N)=O)C(=O)C[C@@H](N)Cc1ccccc1)C(=O)C[C@@H](N)CCCNC(=N)N)C(=O)C[C@@H](N)Cc1ccccc1	1.63 ± 0.12 kcal/mol
